Measurements from different studies.
Each line is one published result; not all experiments were run side by side. Square brackets hold non-standard residues; d marks the D form. Ends that are not written are not given here.
B1: MARK1 682-795 K761S/R764S (Homo sapiens, UniProt Q9P0L2); sequence looked up; chain GEPKERDKEEGKDSKPRSLRFTWSMKTTSSMDPNDMMREIRKVLDANNCDYEQKERFLLFCVHGDARQDSLVQWEMEVCSLPSLSLNGVRFKRISGTSIAFKNIASKIANELKL
B2: TFAM 43-245 C49S (Homo sapiens, UniProt Q00059); sequence looked up; chain SSVLASSPKKPVSSYLRFSKEQLPIFKAQNPDAKTTELIRRIAQRWRELPDSKKKIYQDAYRAEWQVYKEEISRFKEQLTPSQIMSLEKEIMDKHLKRKAMTKKKELTLLGKPKRPRSAYNVYVAERFQEAKGDSPQEKLKTVKENWKNLSDSEKELYIQHAKEDETRYHNEMKSWEEQMIEVGRKDLLRRTIKKQRKYGAEE
B3: UGT1A9 (Homo sapiens, UniProt O60656); chain GKLLVVPMDGSHWFTMRSVVEKLILRGHEVVVVMPEVSWQLGRSLNCTVKTYSTSYTLEDLDREFKAFAHAQWKAQVRSIYSLLMGSYNDIFDLFFSNCRSLFKDKKLVEYLKESSFDAVFLDPFDNCGLIVAKYFSLPSVVFARGILCHYLEEGAQCPAPLSYVPRILLGFSDAMTFKERVRNHIMHLEEHLLCHRFFKNALEIASEILQTPVTEYDLYSHTSIWLLRTDFVLDYPKPVMPNMIFIGGINCHQGKPLPMEFEAYINASGEHGIVVFSLGSMVSEIPEKKAMAIADALGKIPQTVLWRYTGTRPSNLANNTILVKWLPQNDLLGHPMTRAFITHAGSHGVYESICNGVPMVMMPLFGDQMDNAKRMETKGAGVTLNVLEMTSEDLENALKAVINDKSYKENIMRLSSLHKDRPVEPLDLAVFWVEFVMRHKGAPHLRPAAHDLTWYQYHSLDVIGFLLAVVLTVAFITFKCCAYGYRKCLGKKGRVKKAHKSKTH
B4: Nup98 732-880 (Mus musculus, UniProt Q6PFD9); sequence looked up; chain AGIVLTKVGYYTIPSMDDLAKITNEKGECIVSDFTIGRKGYGSIYFEGDVNLTNLNLDDIVHIRRKEVIVYVDDNQKPPVGEGLNRKAEVTLDGVWPTDKTSRCLIKSPDRLADINYEGRLEAVSRKQGAQFKEYRPETGSWVFKVSHF
B5: Rad50 NBD 1-190/686-852 D804C/H830C (Thermotoga maritima, UniProt Q9X1X1); disulfide; chain MRPERLTVRNFLGLKNVDIEFQSGITVVEGPNGAGKSSLFEAISFALFGNGIRYPNSYDYVNRNAVDGTARLVFQFERGGKRYEIIREINALQRKHNAKLSEILENGKKAAIAAKPTSVKQEVEKILGIEHRTFIRTVFLPQGEIDKLLISPPSEITEIISDVFQSKETLEKLEKLLKEKMKKLENEISSGGAGGAGGSLEKKLKEMSDEYNNLDLLRKYLFDKSNFSRYFTGRVLEAVLKRTKAYLDILTNGRFDIDFDDEKGGFIIKDWGIERPARGLSGGERALISISLAMSLAEVASGRLDAFFIDEGFSSLCTENKEKIASVLKELERLNKVIVFITCDREFSEAFDRKLRITGGVVVNE
Chain of UniProt O95714 (whole entry, looked up): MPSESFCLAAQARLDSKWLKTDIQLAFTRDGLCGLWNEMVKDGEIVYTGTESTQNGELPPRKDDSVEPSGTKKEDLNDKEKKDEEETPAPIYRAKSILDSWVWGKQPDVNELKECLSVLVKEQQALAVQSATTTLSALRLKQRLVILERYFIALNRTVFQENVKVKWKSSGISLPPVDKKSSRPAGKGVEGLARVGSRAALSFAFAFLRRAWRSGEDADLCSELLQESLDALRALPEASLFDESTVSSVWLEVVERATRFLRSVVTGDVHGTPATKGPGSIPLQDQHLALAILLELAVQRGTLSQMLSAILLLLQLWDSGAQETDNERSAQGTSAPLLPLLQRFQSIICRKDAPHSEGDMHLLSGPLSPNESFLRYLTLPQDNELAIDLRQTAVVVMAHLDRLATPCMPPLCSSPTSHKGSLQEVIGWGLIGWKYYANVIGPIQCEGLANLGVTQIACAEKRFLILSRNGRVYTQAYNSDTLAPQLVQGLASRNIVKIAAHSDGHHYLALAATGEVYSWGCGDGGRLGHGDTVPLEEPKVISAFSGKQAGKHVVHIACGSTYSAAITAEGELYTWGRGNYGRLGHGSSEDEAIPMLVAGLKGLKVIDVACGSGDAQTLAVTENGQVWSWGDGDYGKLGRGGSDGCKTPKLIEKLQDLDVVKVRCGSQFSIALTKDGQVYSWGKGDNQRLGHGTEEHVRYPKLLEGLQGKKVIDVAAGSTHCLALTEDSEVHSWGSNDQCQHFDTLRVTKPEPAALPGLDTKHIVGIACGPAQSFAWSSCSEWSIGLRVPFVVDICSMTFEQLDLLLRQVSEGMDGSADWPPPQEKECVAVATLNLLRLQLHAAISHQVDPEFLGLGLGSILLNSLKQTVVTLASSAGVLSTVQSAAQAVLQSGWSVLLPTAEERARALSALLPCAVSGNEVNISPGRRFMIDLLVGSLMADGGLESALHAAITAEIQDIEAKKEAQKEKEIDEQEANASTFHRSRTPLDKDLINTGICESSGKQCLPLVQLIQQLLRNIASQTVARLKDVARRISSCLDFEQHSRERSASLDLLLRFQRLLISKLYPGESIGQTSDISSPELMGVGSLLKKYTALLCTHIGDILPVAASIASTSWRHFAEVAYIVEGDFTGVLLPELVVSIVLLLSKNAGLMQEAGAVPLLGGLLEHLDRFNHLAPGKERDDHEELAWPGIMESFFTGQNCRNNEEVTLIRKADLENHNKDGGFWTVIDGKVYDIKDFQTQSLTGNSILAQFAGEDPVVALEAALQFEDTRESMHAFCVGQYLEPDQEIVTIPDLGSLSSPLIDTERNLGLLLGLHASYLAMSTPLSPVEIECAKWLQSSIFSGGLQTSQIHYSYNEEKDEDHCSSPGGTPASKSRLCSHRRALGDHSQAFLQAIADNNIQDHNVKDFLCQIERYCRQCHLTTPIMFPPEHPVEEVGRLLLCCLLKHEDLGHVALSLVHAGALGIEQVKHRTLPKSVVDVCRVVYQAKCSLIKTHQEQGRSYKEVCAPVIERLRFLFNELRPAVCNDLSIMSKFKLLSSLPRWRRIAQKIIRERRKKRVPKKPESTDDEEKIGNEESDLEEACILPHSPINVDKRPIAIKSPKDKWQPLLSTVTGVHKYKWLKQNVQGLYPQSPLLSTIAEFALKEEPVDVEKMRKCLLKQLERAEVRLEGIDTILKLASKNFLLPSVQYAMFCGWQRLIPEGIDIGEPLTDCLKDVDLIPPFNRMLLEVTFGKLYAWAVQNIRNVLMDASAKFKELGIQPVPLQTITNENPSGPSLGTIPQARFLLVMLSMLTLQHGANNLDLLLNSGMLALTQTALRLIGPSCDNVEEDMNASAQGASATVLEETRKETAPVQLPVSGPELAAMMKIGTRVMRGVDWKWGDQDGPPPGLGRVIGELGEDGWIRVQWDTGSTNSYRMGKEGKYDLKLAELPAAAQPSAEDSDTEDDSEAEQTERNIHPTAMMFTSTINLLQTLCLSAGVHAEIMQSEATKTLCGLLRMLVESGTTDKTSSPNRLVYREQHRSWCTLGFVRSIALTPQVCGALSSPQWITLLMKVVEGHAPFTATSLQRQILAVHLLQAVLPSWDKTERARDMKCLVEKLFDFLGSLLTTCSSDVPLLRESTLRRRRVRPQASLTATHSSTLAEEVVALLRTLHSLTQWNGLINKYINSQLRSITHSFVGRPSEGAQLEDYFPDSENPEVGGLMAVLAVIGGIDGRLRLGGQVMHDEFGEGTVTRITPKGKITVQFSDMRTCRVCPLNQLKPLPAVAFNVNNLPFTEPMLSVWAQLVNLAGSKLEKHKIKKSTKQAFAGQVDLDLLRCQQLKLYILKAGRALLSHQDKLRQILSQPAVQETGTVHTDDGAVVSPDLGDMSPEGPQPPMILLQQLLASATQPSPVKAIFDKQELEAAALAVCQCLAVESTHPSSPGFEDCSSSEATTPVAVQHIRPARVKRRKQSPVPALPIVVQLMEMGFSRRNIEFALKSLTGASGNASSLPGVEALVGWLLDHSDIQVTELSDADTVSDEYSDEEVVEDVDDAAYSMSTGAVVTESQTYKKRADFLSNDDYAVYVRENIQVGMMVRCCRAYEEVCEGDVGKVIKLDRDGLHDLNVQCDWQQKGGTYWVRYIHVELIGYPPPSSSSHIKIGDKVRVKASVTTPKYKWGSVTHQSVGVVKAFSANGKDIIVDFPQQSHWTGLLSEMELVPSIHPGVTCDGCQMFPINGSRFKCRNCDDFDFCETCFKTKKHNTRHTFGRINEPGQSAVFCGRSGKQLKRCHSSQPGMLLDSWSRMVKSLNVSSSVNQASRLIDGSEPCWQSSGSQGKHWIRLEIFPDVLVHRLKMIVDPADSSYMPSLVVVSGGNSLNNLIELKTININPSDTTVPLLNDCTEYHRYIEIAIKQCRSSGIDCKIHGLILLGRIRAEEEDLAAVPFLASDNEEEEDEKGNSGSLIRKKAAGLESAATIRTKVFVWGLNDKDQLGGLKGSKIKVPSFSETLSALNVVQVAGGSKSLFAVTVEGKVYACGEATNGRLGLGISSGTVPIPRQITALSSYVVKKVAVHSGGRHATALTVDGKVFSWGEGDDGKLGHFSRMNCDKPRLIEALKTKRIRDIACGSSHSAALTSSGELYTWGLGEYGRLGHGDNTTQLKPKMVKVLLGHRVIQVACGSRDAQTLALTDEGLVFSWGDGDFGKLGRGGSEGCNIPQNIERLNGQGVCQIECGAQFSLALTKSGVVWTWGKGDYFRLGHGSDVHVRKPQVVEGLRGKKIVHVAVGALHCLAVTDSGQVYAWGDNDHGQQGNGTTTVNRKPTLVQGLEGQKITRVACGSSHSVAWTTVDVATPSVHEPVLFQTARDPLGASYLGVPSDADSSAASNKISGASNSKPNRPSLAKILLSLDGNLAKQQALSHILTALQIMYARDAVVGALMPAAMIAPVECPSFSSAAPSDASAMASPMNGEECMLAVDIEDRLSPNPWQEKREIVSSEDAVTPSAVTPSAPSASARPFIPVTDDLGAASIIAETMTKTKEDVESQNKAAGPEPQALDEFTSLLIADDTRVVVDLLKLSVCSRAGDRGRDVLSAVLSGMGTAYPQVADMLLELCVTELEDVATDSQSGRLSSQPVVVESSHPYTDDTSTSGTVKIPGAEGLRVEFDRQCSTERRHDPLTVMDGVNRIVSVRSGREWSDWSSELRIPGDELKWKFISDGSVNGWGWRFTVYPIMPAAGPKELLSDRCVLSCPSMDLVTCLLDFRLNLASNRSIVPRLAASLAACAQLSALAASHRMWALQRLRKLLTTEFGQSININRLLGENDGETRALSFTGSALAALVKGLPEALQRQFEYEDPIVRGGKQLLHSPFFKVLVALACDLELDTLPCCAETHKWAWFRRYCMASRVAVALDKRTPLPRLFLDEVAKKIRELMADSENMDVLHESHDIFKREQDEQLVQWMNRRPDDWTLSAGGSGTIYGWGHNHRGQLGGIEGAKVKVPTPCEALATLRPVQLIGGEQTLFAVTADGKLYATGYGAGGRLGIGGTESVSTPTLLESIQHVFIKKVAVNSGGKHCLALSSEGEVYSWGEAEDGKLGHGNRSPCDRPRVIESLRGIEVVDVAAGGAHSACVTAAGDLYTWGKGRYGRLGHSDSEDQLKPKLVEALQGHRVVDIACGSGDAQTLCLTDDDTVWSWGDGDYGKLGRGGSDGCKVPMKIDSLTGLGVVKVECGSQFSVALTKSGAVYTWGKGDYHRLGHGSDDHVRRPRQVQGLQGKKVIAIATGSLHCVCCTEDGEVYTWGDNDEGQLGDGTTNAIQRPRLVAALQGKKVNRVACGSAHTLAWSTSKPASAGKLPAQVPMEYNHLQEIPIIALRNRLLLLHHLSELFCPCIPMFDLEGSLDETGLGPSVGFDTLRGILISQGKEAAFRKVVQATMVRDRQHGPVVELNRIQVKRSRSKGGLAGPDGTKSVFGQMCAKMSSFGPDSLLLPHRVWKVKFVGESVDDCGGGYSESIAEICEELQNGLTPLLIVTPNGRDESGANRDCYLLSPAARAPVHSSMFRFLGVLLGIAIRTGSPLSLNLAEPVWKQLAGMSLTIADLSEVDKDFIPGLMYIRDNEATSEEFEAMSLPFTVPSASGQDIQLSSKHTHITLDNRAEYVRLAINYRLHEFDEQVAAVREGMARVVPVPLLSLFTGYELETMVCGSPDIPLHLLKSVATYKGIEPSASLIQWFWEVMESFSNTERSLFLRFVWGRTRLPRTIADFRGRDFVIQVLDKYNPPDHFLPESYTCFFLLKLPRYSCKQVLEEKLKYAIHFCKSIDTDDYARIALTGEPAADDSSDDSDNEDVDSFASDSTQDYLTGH

Molecule = B1 (MARK1 682-795 K761S/R764S); target or system = MARK1 45-381 T215E (Homo sapiens, UniProt Q9P0L2); test = crystal structure; endpoint = binding; result = binds
Molecule = B2 (TFAM 43-245 C49S); target or system = POLRMT 105-end 105-1230 E555A (Homo sapiens, UniProt O00411); test = crystal structure; endpoint = binding; result = binds
Molecule = B3 (UGT1A9); target or system = O=c1c(O)c(-c2ccccc2)oc2cccc(O)c12; test = steady-state kinetics; setting = pH 7.4, 37 °C; endpoint = Km; result = 0.25 µM
Molecule = ARTKQC (Histone H3.1 2-6 (Homo sapiens, UniProt P68431)); target or system = KDM5A 287-347 (Homo sapiens, UniProt P29375); test = PI-SAMDI; test system = peptide; endpoint = binding; result = binds
Molecule = GRRYVDMTSIFDFMLN (POL1 residues 1453-1468, GST fusion (Saccharomyces cerevisiae)); target or system = PRI1/PRI2 PRI1 1-409, PRI2 49-513 del382-384 (Saccharomyces cerevisiae); test = pull-down; test system = peptide; setting = 2 h, pH 7.0, 4 °C; endpoint = binding; result = binds
Molecule = PYGM (Homo sapiens, UniProt P11217); target or system = PHKB, pS12/pS27/pS701 (Homo sapiens, UniProt Q93100); test = cross-linking; endpoint = binding; result = binds
Molecule = SDQEAK (SUMO1 residues 1-6 (Homo sapiens)); target or system = HERC2 ZZ domain 2702-2755 (Homo sapiens, UniProt O95714); test = crystal structure; setting = molecule fused to partner; endpoint = binding; result = binds
Molecule = fluorescein-SPT[pS]PSY[pS]PTS (POLR2A CTD peptide consensus heptads, 11-aa; N-fluorescein, pS4, pS8; fluorescein = fluorescein label (fluorescent) on the peptide N-terminus; pS = N[C@@H](COP(=O)(O)O)C(=O)O); target or system = Rngtt 227-567 F367N (Mus musculus, UniProt O55236); test = fluorescence polarisation; test system = peptide; setting = pH 7.0, 23 °C; endpoint = binding; result = binds
Molecule = B4 (Nup98 732-880); target or system = NUP82 1-452 L393A/I397A/L402A/L405A/F410A/C396S (Saccharomyces cerevisiae, UniProt P40368); test = SEC; endpoint = binding; result = binds
Molecule = B5; target or system = sbcD 7-385 L7M/H94Q/F291S (Thermotoga maritima, UniProt Q9X1X0); test = crystal structure; endpoint = binding; result = binds

Repeated from above:
Molecule = SDQEAK (SUMO1 residues 1-6 (Homo sapiens)); target or system = HERC2 ZZ domain 2702-2755 (Homo sapiens, UniProt O95714); test = crystal structure; setting = molecule fused to partner; endpoint = binding; result = binds
